Results from different studies.
Numbers after ± are the reported error.
CES1: Liver carboxylesterase 1 (CES1, Homo sapiens, UniProt P23141)
T1: RNA aptamer A9G; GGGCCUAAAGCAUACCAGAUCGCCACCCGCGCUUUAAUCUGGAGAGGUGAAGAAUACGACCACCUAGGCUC
T2: thiM TPP riboswitch transcriptional intermediate mimic, 2-aminopurine at 62 (Escherichia coli); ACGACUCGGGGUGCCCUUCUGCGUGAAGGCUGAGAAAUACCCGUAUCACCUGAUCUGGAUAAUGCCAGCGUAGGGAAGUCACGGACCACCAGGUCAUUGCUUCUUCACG

For `CC(=O)NCCN(CCC(=O)NCCN(CCC(=O)NCCN(CCC(=O)NCCC(N)=O)C(=O)[C@@H](N)Cc1ccccc1)C(=O)[C@@H](N)CCCNC(=N)N)C(=O)[C@@H](N)CCCNC(=N)N`, “heat capacity change ΔCp” read -2.81 ± 0.28 kJ/mol/K (HIV-1 TAR RNA; concentration not given).
With `COc1cc(OC)c2c(c1)C(=O)c1cc3oc(=O)cc(C)c3c(O)c1C2=O` the inhibition was 63.86 ± 0.36% (mushroom tyrosinase; enzyme activity; 100 µg/mL, with: L-DOPA).
For `NC(=O)C1CCNC(=O)C(CCCNC(=O)c2cnccn2)NC(=O)C(CC2CCCCC2)NC(=O)C(CC=Cc2ccccc2)NC(=O)C=CC(=O)N1` (centres unmarked), the enrichment factor was 1.9 (PIM1 (Homo sapiens, UniProt P11309); DNA-templated library selection; one selection round).
`N=C(N)NCCC[C@H](NC(=O)[C@H](Cc1ccccc1)NC(=O)[C@@H](N)CO)C(=O)N[C@@H](CC(N)=O)C(=O)NCC(N)=O` gave a bias factor of 2.06 (NPSR1 (Homo sapiens, UniProt Q6W5P4, N107I); agonist; CHO-Galpha16; relative to: calcium over cAMP).
With `CCCCCCCCCCCCCCCC(=O)OC[C@H](CSC[C@H](NC(=O)COCC(=O)NCCCOCCOCCOCCCNC(=O)CN(CCN(CCN(CC(=O)O)CC(=O)O)CC(=O)O)CC(=O)O)C(=O)NCC(=O)N[C@H](CO)C(=O)NCCCOCCOCCOCCCNC(=O)COCC(N)=O)OC(=O)CCCCCCCCCCCCCCC` the Bmax was 270000 AFU (TLR2 (Homo sapiens, UniProt O60603); europium TRF saturation binding; SU.86.86).
`Cc1ccc2ccc3ccc(C)nc3c2n1.Cc1ccc2ccc3ccc(C)nc3c2n1.O.[Cl-].[Cl-].[Cl-].[Yb+3]` — result for “Förster critical distance”: 2.3 nm (Albumin (ALB, Bos taurus, UniProt P02769); FRET; 25 °C, excitation 280 nm).
With `CN(C)[C@@H]1C(=O)C(C(N)=O)=C(O)[C@@]2(O)C(=O)C3=C(O)c4c(O)cccc4[C@@](C)(O)[C@H]3C[C@@H]12` the Kd was 162 nM (T1, RNA aptamer A9G; fluorescence titration; pH 7.5, 25 °C, MgCl2 10 mM).
`CC(=O)NCCN(CC(=O)NCCN(CC(=O)NCCN(CC(=O)NCCC(N)=O)C(=O)[C@@H](N)CCCNC(=N)N)C(=O)[C@@H](N)Cc1ccccc1)C(=O)[C@@H](N)Cc1ccccc1` has a non-electrostatic TΔS° of -4.09 ± 0.143 kcal/mol (HIV-1 TAR RNA).
With `CCCCCCCC(=O)Nc1ccc(N(C)C)nc1C` the specific activity was 54 pmol/min/µg (CES1; substrate; 50 µM, pH 8, 37 °C, enzyme purity 25%).
`O=C1CC[C@H](N2Cc3cc(-c4ccn5ncc(Br)c5n4)ccc3C2=O)C(=O)N1` has a Dmax of 86% (Cereblon/Casein kinase I alpha (CSNK1A1/CRBN, Homo sapiens, UniProt P48729+Q96SW2); protein level, degrader, luciferase; MOLT-4).
`CNC(=O)c1ccc2c(c1)N(C)S(=O)(=O)c1cnc(SC)nc1-2` gave a kcat of 9 ± 1 s^–1 (Kinesin-like protein KIF15 (Homo sapiens, UniProt Q9NS87); microtubule-dependent ATPase activity; 5 µM, with: ATP 2 mM, microtubules).
With `COc1cc(C(=O)NC2CCC(N3CCN(CC4CCC5(CCCC5)C4)CC3)CC2)c(F)cc1Nc1ncc2c(n1)N(C1CCCC1(F)F)CC(F)(F)C(=O)N2C` (centres unmarked) the inhibition was 0.2% (YES1 (Homo sapiens, UniProt P07947); cell-free assay, TR-FRET; 10 µM).
For `CCc1cc(C)nc2c(CC(=O)N(CC)CC)c(-c3ccc(OCC[18F])cc3)nn12`, “k2 efflux rate constant” read 5.33 ± 0.973 min⁻¹ (Tspo (Rattus norvegicus, UniProt P16257); two-tissue compartment model; rat C6 glioma model, tumor; 60 min dynamic PET).
With `Oc1c(C(Nc2nc3ccccc3s2)c2cccc(OCc3ccccc3)c2)ccc2cccnc12` (centres unmarked) the kcat was 0.101 ± 0.0043 s⁻¹ (Genome polyprotein, NS2B-NS3 protease (Dengue virus type 2, UniProt P14340); substrate, tetrapeptide cleavage; 5 µM, 37 °C, with: 40 µM ZnCl2).
For `CSCC[C@H](NC(=O)[C@H](CO)NC(=O)[C@@H](NC(=O)[C@H](CCC(N)=O)NC(C)=O)[C@@H](C)O)C(=O)N[C@H](C(=O)N[C@@H](CC(=O)O)C(=O)N[C@@H](Cc1ccccc1)C(=O)N[C@@H](Cc1ccc(O)cc1)C(=O)N[C@@H](Cc1c[nH]cn1)C(=O)N[C@@H](CO)C(N)=O)[C@@H](C)O`, “binding enthalpy ΔH” read -13.4 ± 1.67 kcal/mol (PCNA (Homo sapiens, UniProt P12004); isothermal titration calorimetry; concentration not given, pH 7.4, 25 °C, 100 mM NaCl, with: p21 peptide).
`CC(=O)NCCN(CCC(=O)NCCN(CCC(=O)NCCN(CCC(=O)NCCC(N)=O)C(=O)[C@@H](N)CCCNC(=N)N)C(=O)[C@@H](N)Cc1ccccc1)C(=O)[C@@H](N)Cc1ccccc1` has a non-electrostatic TΔS° of -0.12 ± 0.43 kcal/mol (HIV-1 TAR RNA).
The kon of `CC[C@H](C)[C@H](NC(=O)[C@H](CCC(=O)O)NC(=O)[C@H](CO)NC(=O)[C@@H](NC(=O)[C@@H](N)CO)C(C)C)C(=O)N[C@@H](CCC(N)=O)C(=O)N[C@@H](CC(C)C)C(=O)N[C@@H](CCSC)C(=O)N[C@@H](Cc1c[nH]cn1)C(=O)N[C@@H](CC(N)=O)C(=O)N[C@@H](CC(C)C)C(=O)NCC(=O)N[C@@H](CCCCN)C(=O)N[C@@H](Cc1c[nH]cn1)C(=O)N[C@@H](CC(C)C)C(=O)N[C@@H](CC(N)=O)C(=O)N[C@@H](CO)C(=O)N[C@@H](CCSC)C(=O)N[C@@H](CCC(=O)O)C(=O)N[C@@H](CCCNC(=N)N)C(=O)N[C@H](C(=O)N[C@@H](CCC(=O)O)C(=O)N[C@@H](Cc1c[nH]c2ccccc12)C(=O)N[C@@H](CC(C)C)C(=O)N[C@@H](CCCNC(=N)N)C(=O)N[C@@H](CCCCN)C(=O)N[C@@H](CCCCN)C(=O)N[C@@H](CC(C)C)C(=O)N[C@@H](CCC(N)=O)C(=O)N[C@@H](CC(=O)O)C(=O)N[C@H](C(=O)N[C@@H](Cc1c[nH]cn1)C(=O)N[C@@H](CC(N)=O)C(=O)N[C@@H](Cc1ccccc1)C(=O)N[C@@H](CCCCNC(=O)c1ccc2c(c1)C1(OC2=O)c2ccc(N(C)C)cc2Oc2cc(N(C)C)ccc21)C(N)=O)C(C)C)C(C)C` is reported as 980000 ± 400000 M⁻¹ s⁻¹ (PTH1R (Homo sapiens, UniProt Q03431); binding, NanoBRET; pH 5.5, acetate buffer).
With `CC[C@H](C)[C@H](NC(=O)[C@H](C)NC(=O)CNC(=O)[C@H](CCCCN)NC(=O)[C@H](CC(C)C)NC(=O)[C@H](CCCCN)NC(=O)[C@H](CCCNC(=N)N)NC(=O)[C@H](CCCNC(=N)N)NC(=O)[C@H](C)NC(=O)[C@H](CC(N)=O)NC(=O)[C@H](Cc1ccccc1)NC(=O)[C@H](CCCCN)NC(=O)[C@H](CCCCN)NC(=O)[C@H](CC(C)C)NC(=O)c1ccc2c(c1)C(=O)OC21c2ccc(O)cc2Oc2cc(O)ccc21)C(=O)N[C@@H](CC(C)C)C(=O)N[C@H](C(=O)N[C@H](C(=O)N[C@@H](CCSC)C(=O)N[C@@H](CC(C)C)C(=O)N[C@@H](C)C(=O)O)[C@@H](C)O)[C@@H](C)O` the anisotropy change was 28% (Calmodulin-1, C-lobe (Calm1, Rattus norvegicus, UniProt P0DP29); binding, fluorescence anisotropy; CaM residues 76-148 (C-domain), apo; 100 µM; relative to: calcium-saturated).
For `COCCO[C@H]1CC[C@H](Nc2cc(=O)n(C)c3ccc(-c4cncs4)cc23)CC1`, the remaining activity was 95.7 ± 6.1% (CD38 (Homo sapiens, UniProt P28907); cyclase activity, fluorometric; 50 nM, with: NGD+ substrate; relative to: untreated).
`C=CCC(=N)NCCC[C@H](N)C(=O)O` has a Hill slope of 1.7 ± 0.15 (Nos1 (Rattus norvegicus, UniProt P29476); NMDA-evoked cGMP accumulation, inhibitor; immature rat cerebellar slices; 25 min pre-incubation).
For `CC1=[N+]2N=C(c3ccccc3)[O][Pd-2]2([Cl])[O+]=C2Oc3ccccc3C=C21` (centres unmarked), the fluorescence quenching was 55.4% (calf thymus DNA; ethidium bromide displacement).
For `CC(=O)NCCN(CC(=O)NCCN(CC(=O)NCCN(CC(=O)NCCC(N)=O)C(=O)C[C@@H](N)CCCNC(=N)N)C(=O)C[C@@H](N)CCCCN)C(=O)C[C@@H](N)Cc1ccccc1`, the non-electrostatic ΔG° was -7.34 ± 0.0956 kcal/mol (HIV-1 TAR RNA; extrapolated to 1 M KCl).
For `Cc1ncc(C[n+]2csc(CCOP(=O)(O)OP(=O)(O)O)c2C)c(N)n1`, binding read “binds weakly” (T2, thiM TPP riboswitch transcriptional intermediate mimic, 2-aminopurine at 62 (Escherichia coli); 2-aminopurine fluorescence; pH 7.5, 25 °C, KCl 100 mM, with: TPP 3 µM).
`CC(=O)NCCN(CC(=O)NCCN(CC(=O)NCCN(CC(=O)NCCC(N)=O)C(=O)[C@@H](N)Cc1ccccc1)C(=O)[C@@H](N)CCCNC(=N)N)C(=O)[C@@H](N)CCCNC(=N)N` — result for “binding free energy ΔG°”: -8.34 ± 0.287 kcal/mol (HIV-1 TAR RNA; 25 °C).
The cleavage of `BP(=O)(OP(=O)([O-])OC[C@H]1O[C@@H](n2c[n+](C)c3c(=O)[nH]c(N)nc32)[C@H](O)[C@@H]1O)OP(=O)([O-])OC[C@H]1O[C@@H](n2c[n+](C)c3c(=O)[nH]c(N)nc32)[C@H](O)[C@@H]1O` is reported as 20% (m7GpppX diphosphatase (dcs-1, Caenorhabditis elegans, UniProt G5EFS4); hydrolysis by DcpS, substrate, HPLC; 15 µM, 10 min, pH 7.6, 20 °C, enzyme 200 nM).
For `CC(=O)NCCN(CCC(=O)NCCN(CCC(=O)NCCN(CCC(=O)NCCC(N)=O)C(=O)[C@@H](N)CCCNC(=N)N)C(=O)[C@@H](N)CCCNC(=N)N)C(=O)[C@@H](N)Cc1ccccc1`, “binding free energy ΔG°” read -8.8 ± 0.335 kcal/mol (HIV-1 TAR RNA; 25 °C).
`O=C(Nc1cccc(Cl)c1)c1c[nH]cn1` has a ligand efficiency of 0.2 (MAPK14 (Homo sapiens, UniProt Q16539); enzyme activity).
For `CCCCCCCC(=O)Nc1ccc(OC)nc1`, the specific activity was 24 pmol/min/µg (CES1; substrate; 50 µM, pH 8, 37 °C, enzyme purity 25%).
Under “binding free energy ΔG°”, `CC(=O)NCCN(CCC(=O)NCCN(CCC(=O)NCCN(CCC(=O)NCCC(N)=O)C(=O)[C@@H](N)Cc1ccccc1)C(=O)[C@@H](N)Cc1ccccc1)C(=O)[C@@H](N)CCCNC(=N)N` is recorded as -8.77 ± 0.287 kcal/mol (HIV-1 TAR RNA; 25 °C).

A few entries again:
`CNC(=O)c1ccc2c(c1)N(C)S(=O)(=O)c1cnc(SC)nc1-2` gave a kcat of 9 ± 1 s^–1 (Kinesin-like protein KIF15 (Homo sapiens, UniProt Q9NS87); microtubule-dependent ATPase activity; 5 µM, with: ATP 2 mM, microtubules).
With `COc1cc(C(=O)NC2CCC(N3CCN(CC4CCC5(CCCC5)C4)CC3)CC2)c(F)cc1Nc1ncc2c(n1)N(C1CCCC1(F)F)CC(F)(F)C(=O)N2C` (centres unmarked) the inhibition was 0.2% (YES1 (Homo sapiens, UniProt P07947); cell-free assay, TR-FRET; 10 µM).
For `CCc1cc(C)nc2c(CC(=O)N(CC)CC)c(-c3ccc(OCC[18F])cc3)nn12`, “k2 efflux rate constant” read 5.33 ± 0.973 min⁻¹ (Tspo (Rattus norvegicus, UniProt P16257); two-tissue compartment model; rat C6 glioma model, tumor; 60 min dynamic PET).
With `Oc1c(C(Nc2nc3ccccc3s2)c2cccc(OCc3ccccc3)c2)ccc2cccnc12` (centres unmarked) the kcat was 0.101 ± 0.0043 s⁻¹ (Genome polyprotein, NS2B-NS3 protease (Dengue virus type 2, UniProt P14340); substrate, tetrapeptide cleavage; 5 µM, 37 °C, with: 40 µM ZnCl2).
For `CSCC[C@H](NC(=O)[C@H](CO)NC(=O)[C@@H](NC(=O)[C@H](CCC(N)=O)NC(C)=O)[C@@H](C)O)C(=O)N[C@H](C(=O)N[C@@H](CC(=O)O)C(=O)N[C@@H](Cc1ccccc1)C(=O)N[C@@H](Cc1ccc(O)cc1)C(=O)N[C@@H](Cc1c[nH]cn1)C(=O)N[C@@H](CO)C(N)=O)[C@@H](C)O`, “binding enthalpy ΔH” read -13.4 ± 1.67 kcal/mol (PCNA (Homo sapiens, UniProt P12004); isothermal titration calorimetry; concentration not given, pH 7.4, 25 °C, 100 mM NaCl, with: p21 peptide).
